Experimental data of several laboratories.
Compare with care: the assays were run in different laboratories. Numbers after ± are the reported error.
PLAU: Urokinase-type plasminogen activator (PLAU, Homo sapiens, UniProt P00749)
HDAC11: Histone deacetylase 11 (HDAC11, Homo sapiens, UniProt Q96DB2)
Sequence of UniProt Q96DB2 (whole entry, looked up): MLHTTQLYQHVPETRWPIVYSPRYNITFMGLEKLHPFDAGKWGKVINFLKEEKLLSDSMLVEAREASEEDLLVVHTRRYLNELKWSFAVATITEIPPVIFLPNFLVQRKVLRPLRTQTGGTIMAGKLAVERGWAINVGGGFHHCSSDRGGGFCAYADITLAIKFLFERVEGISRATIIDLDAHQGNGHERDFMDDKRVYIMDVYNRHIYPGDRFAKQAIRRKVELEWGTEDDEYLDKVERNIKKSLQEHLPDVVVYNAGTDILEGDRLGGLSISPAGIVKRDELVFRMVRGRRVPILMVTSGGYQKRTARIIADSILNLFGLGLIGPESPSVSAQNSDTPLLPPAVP
KMT2C: Histone-lysine N-methyltransferase 2C (KMT2C, Homo sapiens, UniProt Q8NEZ4)
DRD4: D(4) dopamine receptor (DRD4, Homo sapiens, UniProt P21917)
Sequence of UniProt P21917 (whole entry, looked up): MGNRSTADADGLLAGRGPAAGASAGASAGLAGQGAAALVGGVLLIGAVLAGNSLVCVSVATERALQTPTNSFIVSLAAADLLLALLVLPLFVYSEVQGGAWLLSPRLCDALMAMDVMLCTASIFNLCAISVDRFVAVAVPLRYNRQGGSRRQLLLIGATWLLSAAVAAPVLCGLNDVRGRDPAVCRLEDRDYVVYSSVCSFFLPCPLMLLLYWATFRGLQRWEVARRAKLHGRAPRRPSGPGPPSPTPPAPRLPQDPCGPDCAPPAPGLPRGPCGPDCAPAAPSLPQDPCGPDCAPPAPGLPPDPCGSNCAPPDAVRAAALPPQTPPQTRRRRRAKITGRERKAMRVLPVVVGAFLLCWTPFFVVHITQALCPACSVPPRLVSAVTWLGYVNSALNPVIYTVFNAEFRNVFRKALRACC
Sequence of UniProt P52790 (whole entry, unmodified, looked up): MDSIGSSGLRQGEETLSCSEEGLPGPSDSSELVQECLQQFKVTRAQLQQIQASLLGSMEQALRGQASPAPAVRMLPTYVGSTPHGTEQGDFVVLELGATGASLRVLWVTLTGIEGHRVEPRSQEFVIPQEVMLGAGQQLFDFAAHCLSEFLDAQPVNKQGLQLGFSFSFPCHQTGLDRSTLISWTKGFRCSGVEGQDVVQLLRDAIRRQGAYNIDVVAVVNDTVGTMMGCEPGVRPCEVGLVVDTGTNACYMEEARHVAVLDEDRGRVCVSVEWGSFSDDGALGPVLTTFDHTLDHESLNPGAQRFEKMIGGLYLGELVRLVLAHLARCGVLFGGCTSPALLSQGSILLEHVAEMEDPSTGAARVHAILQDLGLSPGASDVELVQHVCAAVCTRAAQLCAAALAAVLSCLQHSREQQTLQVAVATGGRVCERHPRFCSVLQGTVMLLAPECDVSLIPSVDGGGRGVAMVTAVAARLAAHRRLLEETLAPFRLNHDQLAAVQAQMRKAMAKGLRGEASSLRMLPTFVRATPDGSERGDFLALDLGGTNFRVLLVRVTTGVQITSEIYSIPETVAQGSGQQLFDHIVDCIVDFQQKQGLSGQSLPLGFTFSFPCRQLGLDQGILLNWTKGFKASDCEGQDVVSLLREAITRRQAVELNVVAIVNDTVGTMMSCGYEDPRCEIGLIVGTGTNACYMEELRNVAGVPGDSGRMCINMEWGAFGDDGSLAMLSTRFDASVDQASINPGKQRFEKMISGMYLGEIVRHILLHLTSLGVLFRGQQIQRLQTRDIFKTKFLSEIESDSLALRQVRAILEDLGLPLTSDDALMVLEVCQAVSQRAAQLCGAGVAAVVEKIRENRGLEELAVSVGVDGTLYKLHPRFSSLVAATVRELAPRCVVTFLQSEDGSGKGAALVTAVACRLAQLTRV
Sequence of UniProt P35348 (whole entry, unmodified, looked up): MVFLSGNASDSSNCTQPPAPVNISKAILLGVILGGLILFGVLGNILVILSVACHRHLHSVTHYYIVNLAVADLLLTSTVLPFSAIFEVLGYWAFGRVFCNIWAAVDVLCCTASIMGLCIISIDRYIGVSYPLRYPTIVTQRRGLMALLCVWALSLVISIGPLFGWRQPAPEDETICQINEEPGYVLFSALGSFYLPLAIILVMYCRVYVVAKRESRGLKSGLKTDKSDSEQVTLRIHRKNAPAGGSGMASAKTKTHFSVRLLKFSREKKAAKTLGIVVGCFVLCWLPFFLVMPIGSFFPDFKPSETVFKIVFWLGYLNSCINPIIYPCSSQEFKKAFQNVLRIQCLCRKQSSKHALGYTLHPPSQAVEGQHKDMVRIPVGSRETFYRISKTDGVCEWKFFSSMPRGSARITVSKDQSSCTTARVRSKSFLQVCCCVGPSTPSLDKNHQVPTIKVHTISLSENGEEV
Sequence of UniProt P22059 (whole entry, looked up): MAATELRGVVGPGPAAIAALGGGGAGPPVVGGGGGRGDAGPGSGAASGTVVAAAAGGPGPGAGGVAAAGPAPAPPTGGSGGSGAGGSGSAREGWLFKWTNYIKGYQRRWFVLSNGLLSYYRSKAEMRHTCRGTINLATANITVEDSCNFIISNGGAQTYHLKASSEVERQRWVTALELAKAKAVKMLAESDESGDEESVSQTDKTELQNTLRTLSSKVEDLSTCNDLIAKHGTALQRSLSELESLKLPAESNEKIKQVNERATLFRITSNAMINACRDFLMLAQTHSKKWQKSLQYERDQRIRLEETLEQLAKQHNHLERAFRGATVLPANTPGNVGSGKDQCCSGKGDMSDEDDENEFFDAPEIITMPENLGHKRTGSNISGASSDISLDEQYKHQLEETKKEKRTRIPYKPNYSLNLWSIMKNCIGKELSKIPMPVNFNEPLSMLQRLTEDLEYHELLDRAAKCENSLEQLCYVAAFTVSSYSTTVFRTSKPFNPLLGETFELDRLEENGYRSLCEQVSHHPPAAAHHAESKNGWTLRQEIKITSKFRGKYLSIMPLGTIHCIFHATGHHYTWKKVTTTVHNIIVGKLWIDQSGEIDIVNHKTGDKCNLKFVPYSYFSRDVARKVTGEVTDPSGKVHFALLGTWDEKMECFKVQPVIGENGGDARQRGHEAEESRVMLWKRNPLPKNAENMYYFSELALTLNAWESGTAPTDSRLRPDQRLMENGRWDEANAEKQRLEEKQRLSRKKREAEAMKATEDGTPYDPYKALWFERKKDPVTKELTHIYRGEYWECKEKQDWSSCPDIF
Sequence of UniProt O14744 (whole entry, looked up): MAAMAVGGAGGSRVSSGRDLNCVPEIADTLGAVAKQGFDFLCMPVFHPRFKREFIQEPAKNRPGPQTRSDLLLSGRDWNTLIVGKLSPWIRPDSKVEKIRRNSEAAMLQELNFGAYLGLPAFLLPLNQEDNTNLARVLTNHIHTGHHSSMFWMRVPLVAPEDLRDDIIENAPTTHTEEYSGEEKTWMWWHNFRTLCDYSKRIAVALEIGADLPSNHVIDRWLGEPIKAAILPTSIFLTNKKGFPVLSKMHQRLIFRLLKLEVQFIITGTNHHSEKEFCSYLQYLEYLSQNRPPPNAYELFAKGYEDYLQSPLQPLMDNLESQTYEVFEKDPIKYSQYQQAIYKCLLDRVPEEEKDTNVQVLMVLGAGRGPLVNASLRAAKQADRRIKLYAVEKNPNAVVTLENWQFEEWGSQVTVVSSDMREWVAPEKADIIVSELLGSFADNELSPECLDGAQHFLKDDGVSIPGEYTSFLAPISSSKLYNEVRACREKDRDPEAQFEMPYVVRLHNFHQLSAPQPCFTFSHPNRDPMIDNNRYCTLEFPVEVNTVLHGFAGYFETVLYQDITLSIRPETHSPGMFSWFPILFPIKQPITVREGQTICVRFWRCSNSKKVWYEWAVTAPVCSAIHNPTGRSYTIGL
Sequence of UniProt P30968 (whole entry, unmodified, looked up): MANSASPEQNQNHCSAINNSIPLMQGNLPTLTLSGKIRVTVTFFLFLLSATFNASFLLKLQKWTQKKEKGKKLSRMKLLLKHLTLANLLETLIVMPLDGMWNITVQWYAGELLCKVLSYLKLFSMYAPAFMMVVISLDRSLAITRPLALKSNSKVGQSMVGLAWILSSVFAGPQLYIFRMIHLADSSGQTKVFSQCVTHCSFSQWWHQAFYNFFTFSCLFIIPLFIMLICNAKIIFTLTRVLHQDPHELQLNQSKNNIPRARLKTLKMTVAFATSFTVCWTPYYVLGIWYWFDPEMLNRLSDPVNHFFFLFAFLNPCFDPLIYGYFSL
Sequence of UniProt P47898 (whole entry, looked up): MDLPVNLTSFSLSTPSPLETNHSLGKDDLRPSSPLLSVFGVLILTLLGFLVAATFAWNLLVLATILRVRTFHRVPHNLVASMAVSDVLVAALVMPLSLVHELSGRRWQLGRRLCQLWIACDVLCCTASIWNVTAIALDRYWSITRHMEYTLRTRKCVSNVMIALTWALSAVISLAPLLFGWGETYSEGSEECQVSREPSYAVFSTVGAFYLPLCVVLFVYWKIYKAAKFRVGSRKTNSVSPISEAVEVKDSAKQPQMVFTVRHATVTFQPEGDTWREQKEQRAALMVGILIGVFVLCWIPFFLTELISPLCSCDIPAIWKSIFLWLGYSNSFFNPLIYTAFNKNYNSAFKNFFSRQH

`CS(=O)(=O)n1cc(-c2cc(C(=O)Nc3ccccc3)cc3ccc(C(=N)N)cc23)cn1` gave a Ki of 0.769 µM (PLAU; inhibitor; pH 7.4).
The Ki of `Cc1ccc2[nH]c(=O)c(CNC3CCCCC3)cc2c1` is reported as 1.1 µM (Alpha-1A adrenergic receptor (ADRA1A, Homo sapiens, UniProt P35348, I178V/M292L); flow cytometry competition binding; COS-7; I178V M292L mutant).
For `OC[C@H]1N/C(=N\Cc2ccc(C(F)(F)F)cc2)[C@H](O)[C@@H](O)[C@H]1O`, the Ki was 0.0879 ± 0.0075 µM (β-glucosidase sweet almond; enzyme activity, inhibitor; pH 5.00).
`Cc1cc(OS(=O)(=O)Oc2ccc(C(C)(C)C)cc2C)cc(C(=O)NO)c1` has a Ki of 1.61 µM (HDAC11).
For `Nc1ncnc2c1ncn2[C@@H]1O[C@H](C[C@@H](N)CC[C@H](N)C(=O)O)[C@@H](O)[C@H]1O`, the Ki was 204 µM (KMT2C; methyltransferase activity, noncompetitive inhibitor, enzyme-coupled methylation; added: varied H3 peptide).
`Nc1ccc2nc(N)ccc2c1` has a Ki of over 104 µM (PLAU; inhibitor; pH 7.4).
`OC[C@H]1OC(O)[C@H](O)[C@@H](O)[C@@H]1O` (stereo partly drawn) has a Ki of 7000 ± 1000 µM (Hexokinase-3 (HK3, Homo sapiens, UniProt P52790, R807A); substrate inhibition; mutant R807A, partial substrate inhibition model, added: ATP 20 mM).
With `C#CCN(C)C(=O)c1ccc2ccc(N)nc2c1` the Ki was over 100 µM (PLAU; inhibitor; pH 7.4).
`OC[C@H]1N/C(=N\CC2CCCCCC2)[C@H](O)[C@@H](O)[C@H]1O` gave a Ki of 0.0271 ± 0.0099 µM (β-glucosidase sweet almond; enzyme activity, inhibitor; pH 5.00).
`CN(C)CCN(Cc1ccc(-c2ccc(CNCCc3ccccc3)cc2)cc1)C(=O)CCC1CCCC1` has a Ki of under 2 µM (5-hydroxytryptamine receptor 5A (HTR5A, Homo sapiens, UniProt P47898); binding, radioligand displacement; added: [3H]5-CT).
With `O=C(NO)c1cccc(OS(=O)(=O)Oc2ccc(Oc3ccccc3)cc2)c1` the Ki was 0.298 µM (HDAC11).
`CN(C[C@@H]1C[C@H]1CCNC(=O)c1cc2ccccc2[nH]1)[C@@H]1Cc2cccc3[nH]c(=O)n(c23)C1` has a Ki of 1.49 ± 0.142 µM (DRD4; binding).
The Ki of `CSC[C@H]1O[C@@H](n2cnc3c(N)ncnc32)[C@H](O)[C@@H]1O` is reported as 0.3 µM (Protein arginine N-methyltransferase 5, with WDR77 (PRMT5, Homo sapiens, UniProt O14744)).
`OC[C@H]1N/C(=N\Cc2ccccc2)[C@H](O)[C@@H](O)[C@H]1O` gave a Ki of 0.108 ± 0.002 µM (β-glucosidase sweet almond; enzyme activity, inhibitor; pH 5.00).
With `O=S(=O)(O)c1cc(O)c(N=Nc2ccc3ccccc3c2O)c2ccccc12` the Ki was 6.8 ± 0.8 µM (Diphosphomevalonate decarboxylase (Staphylococcus epidermidis, UniProt Q9FD73); inhibitor; pH 7, added: ATP (varied)).
The Ki of `N=C(N)c1ccc2cc(C(=O)Nc3ccccc3)cc(-c3ncccn3)c2c1` is reported as 7.85 µM (PLAU; inhibitor; pH 7.4).
`CCCCCCCCCCCC/N=C1\N[C@H](CO)[C@H](O)[C@H](O)[C@H]1O` has a Ki of 0.0205 ± 0.0069 µM (β-glucosidase sweet almond; enzyme activity, inhibitor; pH 5.00).
For `Cc1c(OS(=O)(=O)Oc2cccc(C(C)(C)C)c2)cccc1C(=O)NO`, the Ki was 0.646 µM (HDAC11).
`COc1ccc2ccc(C(=N)N)cc2c1-c1cnn(C(C)C)c1` has a Ki of 4.5 µM (PLAU; inhibitor; pH 7.4).
`Cc1cc(OS(=O)(=O)Oc2ccc(C(F)(F)F)cc2)cc(C(=O)NO)c1` gave a Ki of 0.504 µM (HDAC11).
The Ki of `Nc1ncnc2c1ncn2[C@@H]1O[C@H](CSCC[C@H](N)C(=O)O)[C@@H](O)[C@H]1O` is reported as 170 µM (KMT2C; methyltransferase activity, noncompetitive inhibitor, MALDI-TOF mass spectrometry; added: varied H3 peptide).
The Ki of `COc1ccc(C/N=C2\N[C@H](CO)[C@H](O)[C@H](O)[C@H]2O)cc1` is reported as 0.0559 ± 0.0028 µM (β-glucosidase sweet almond; enzyme activity, inhibitor; pH 5.00).
`Cc1cc(C)cc(-c2[nH]c3ccc(C(C)(C)C(=O)N4CC5CCC4CC5)cc3c2[C@H](C)CNCCc2ccncc2)c1` gave a Ki of 0.00077 ± 0.00018 µM (Gonadotropin-releasing hormone receptor (GNRHR, Homo sapiens, UniProt P30968, del191-191); binding, NanoBRET; 4 h, 4 °C, added: 10 nM sCy5-D-Lys6-GnRH).
The Ki of `Cc1c(OS(=O)(=O)Oc2ccc(C(F)(F)F)cc2)cccc1C(=O)NO` is reported as 0.187 µM (HDAC11).
With `CC(C)C[C@H](NC(=O)[C@H](Cc1ccccc1)NC(=O)c1cnccn1)B(O)O` the Ki was 0.0062 µM (20S proteasome (Plasmodium falciparum, UniProt A0A5K1K7U1+Q8IJT1); inhibitor, progress curve).
The Ki of `N=C(N)c1ccc2cc(C(=O)Nc3ccc4c(c3)C(c3ccccc3)=NCC4)ccc2c1` is reported as 0.29 µM (PLAU; inhibitor; pH 7.4).
For `CC1Cc2ccccc2N1C(=O)NCCCCN(C)[C@@H]1Cc2cccc3[nH]c(=O)n(c23)C1` (mixture of isomers), the Ki was 0.0309 ± 0.00261 µM (DRD4; binding).
`O=C(NO)c1cncc(OS(=O)(=O)Oc2ccc3ccccc3c2)c1` gave a Ki of 2.99 µM (HDAC11).
For `Cc1ccccc1C/N=C1\N[C@H](CO)[C@H](O)[C@H](O)[C@H]1O`, the Ki was 0.0262 ± 0.0027 µM (β-glucosidase sweet almond; enzyme activity, inhibitor; pH 5.00).
With `C[C@H](CCCC(C)(C)O)[C@H]1CC[C@H]2[C@@H]3CC=C4C[C@@H](O)CC[C@]4(C)[C@H]3CC[C@]12C` the Ki was 0.026 ± 0.007 µM (Oxysterol-binding protein 1 (OSBP, Homo sapiens, UniProt P22059)).
For `O=C(NO)c1cccc(OS(=O)(=O)Oc2ccc(C(F)(F)F)cc2)c1`, the Ki was 0.511 µM (HDAC11).
For `CN1CCc2ccc(C3CC3c3ccc4cc(C(=N)N)ccc4c3)cc2C1c1cccnc1` (stereo not drawn), the Ki was 1.25 µM (PLAU; inhibitor; pH 7.4).
`CCCCC(CC)CNC1=N[C@H](CO)[C@H](O)[C@H](O)[C@H]1O` (stereo partly drawn) gave a Ki of 0.0172 ± 0.006 µM (β-glucosidase sweet almond; enzyme activity, inhibitor; pH 5.00).
For `Cc1c(OS(=O)(=O)Oc2ccccc2)cccc1C(=O)NO`, the Ki was 2.5 µM (HDAC11).
For `C=CCNC(=O)Nc1cccc2ccc(N)nc12`, the Ki was over 10 µM (PLAU; inhibitor; pH 7.4).
`OC[C@H]1N/C(=N\CCCc2ccccc2)[C@H](O)[C@@H](O)[C@H]1O` gave a Ki of 0.0281 ± 0.0026 µM (β-glucosidase sweet almond; enzyme activity, inhibitor; pH 5.00).

Excerpt of the above:
For `O=C(NO)c1cccc(OS(=O)(=O)Oc2ccc(C(F)(F)F)cc2)c1`, the Ki was 0.511 µM (HDAC11).
For `CN1CCc2ccc(C3CC3c3ccc4cc(C(=N)N)ccc4c3)cc2C1c1cccnc1` (stereo not drawn), the Ki was 1.25 µM (PLAU; inhibitor; pH 7.4).
`CCCCC(CC)CNC1=N[C@H](CO)[C@H](O)[C@H](O)[C@H]1O` (stereo partly drawn) gave a Ki of 0.0172 ± 0.006 µM (β-glucosidase sweet almond; enzyme activity, inhibitor; pH 5.00).
For `Cc1c(OS(=O)(=O)Oc2ccccc2)cccc1C(=O)NO`, the Ki was 2.5 µM (HDAC11).
For `C=CCNC(=O)Nc1cccc2ccc(N)nc12`, the Ki was over 10 µM (PLAU; inhibitor; pH 7.4).
`OC[C@H]1N/C(=N\CCCc2ccccc2)[C@H](O)[C@@H](O)[C@H]1O` gave a Ki of 0.0281 ± 0.0026 µM (β-glucosidase sweet almond; enzyme activity, inhibitor; pH 5.00).
